Published values collected from several papers.
Lines come from different studies, so protocols differ.

| SMILES | tested on | test | system | conditions | scale | quantity | value |
| --- | --- | --- | --- | --- | --- | --- | --- |
| Cc1ncsc1-c1ccc(C(C)NC(=O)C2CC(O)CN2C(=O)C(NC(=O)CCCCCCCCCCN2CCCC(Nc3ncc(Cl)c(Nc4ccccc4S(=O)(=O)C(C)C)n3)C2)C(C)(C)C)cc1 (stereo not shown) | 22Rv1 | RNA-seq, measured: METTL15 mRNA | – | concentration not given | reference: DMSO | log2 fold change | -1.08 |
| [2H]C([2H])([2H])NC(=O)c1ccc(N2C(=S)N(c3ccc(C#N)c(C(F)(F)F)c3)C(=O)C2(C)C)cc1F | – | – | male human, plasma | oral, 160 mg, single dose, fasted | – | Tmax | 1.35 h |
| C=C(NC(=O)c1csc(-c2nc3c(cc2O)-c2nc(cs2)C(=O)NC(C(C)O)C(=O)NC(=C(C)OC)c2nc(cs2)C(=O)NC2c4nc(cs4)C(=O)NC(COC(=O)c4c5c6c(cccc6n4O)COC(=O)C(OC4CC(C)(O)C(N(C)C)C(C)O4)C2OC5)c2nc-3cs2)n1)C(N)=O (stereo not shown) | – | – | ICR mice, Streptococcus pneumoniae ATCC 49169 infected, immunocompromised, blood | intravenous, 16 mg/kg/day three times daily | – | Tmax | 12.1 h |
| CC(C)C[C@H](NC(=O)[C@H](CCCN)NC(=O)CNC(=O)[C@@H](NC(=O)[C@H](C)NC(=O)[C@@H]1CSCSC[C@H](NC(=O)CC[C@H](N)C(=O)O)C(=O)N[C@@H](CC(N)=O)C(=O)N[C@@H]([C@@H](C)O)C(=O)N[C@@H](C)C(=O)N[C@@H]([C@@H](C)O)C(=O)N1)[C@@H](C)O)C(=O)N[C@@H](C)C(=O)N[C@@H](CCC(=O)O)C(=O)N[C@@](C)(Cc1ccccc1)C(=O)N[C@@H](CC(C)C)C(=O)N[C@H](C(=O)N[C@@H](CCCNC(=N)N)C(=O)N[C@@H](CO)C(=O)N[C@@H](CO)C(=O)N[C@@H](CC(N)=O)C(=O)N(C)[C@@H](CC(N)=O)C(=O)N[C@@H](Cc1ccccc1)C(=O)NCC(=O)N1CCC[C@H]1C(=O)N[C@@H](CCCCNC(=O)CC[C@H](NC(=O)CC[C@H](NC(=O)CCCCCCCCCCCCCCCCCCC(=O)O)C(=O)O)C(=O)O)C(=O)N[C@@H](CC(C)C)C(=O)N1CCC[C@H]1C(=O)N1CCC[C@H]1C(=O)N[C@H](C(=O)N[C@@H](CCC(=O)O)C(=O)N[C@H](C(=O)NCC(=O)N[C@@H](CO)C(=O)N[C@@H](CC(N)=O)C(=O)N[C@H](C(=O)N[C@@H](Cc1ccc(O)cc1)C(N)=O)[C@@H](C)O)C(C)C)[C@@H](C)O)C(C)C | – | – | human, plasma | subcutaneous, 1.2 mg, single dose, healthy volunteers | – | Tmax | 84 h |
| CNC(=O)C1CCCN(C(=O)C2CC3CCC2N3C(=O)[C@@H]2C[C@@H](O)CN2C(=O)NCc2cccc(Cl)c2F)C1 (mixture of isomers) | CYP3A4 (human) | inhibitor, time-dependent inhibition | – | 50 µM, preincubated without NADPH, together with: testosterone substrate | – | 6β-hydroxytestosterone formation | 171 ng/mL |
| Cn1ccc(-c2cc(Cl)c(Cl)c3[nH]c4c(c23)CN(C(=O)CO)CC4)n1 | – | – | C57BL/6 mouse, blood | oral, 20 mg/kg | – | Tmax | 2 h |
| O=C(OC(C(F)(F)F)C(F)(F)F)N1CCC(CNS(=O)(=O)c2ccc(Cl)cc2)CC1 | – | – | male SCID mouse, brain | oral, 30 mg/kg | – | Tmax | 4 h |
| C/C(N)=N/C(=N\S(=O)(=O)c1ccc(C(F)(F)F)cc1)N1C[C@H](c2ccccc2)C(c2ccc(Cl)cc2)=N1 | – | – | beagle dog, plasma | oral, 12 mg/kg | – | Tmax | 2 h |
| COC1CN([C@H]2CC[C@H]([C@@]3(C)Oc4c(Cl)cc(C(=O)NCc5c(SC)cc(C)[nH]c5=O)c(C)c4O3)CC2)C1 | – | RNA-seq, measured: FMNL2 | human, whole blood | dose not given, 24 h | reference: pretreatment baseline | log2 fold change | 1.63 |
| Cn1c2cc([S+](C)[O-])sc2c2cnn(Cc3cccc(N)c3)c(=O)c21 (stereo not shown) | – | – | male BALB/c mouse, plasma | oral, 10 mg/kg, single dose | – | Tmax | 0.25 h |
| CC(C)=CCc1ccc(=O)c(O)cc1C(C)C | HepDES19 | cell growth or viability, MTS | – | 72 h | – | CC50 | 13.8 µM |
| COc1cnc2cccc(N3CCc4c(cc(Cn5ccnc5)cc4-c4cn(C)nc4C(F)(F)F)C3=O)c2c1 | – | – | male CD-1 mouse, plasma | oral, 50 mg/kg | – | Tmax | 0.6 h |
| Cc1cc(NC(=O)[C@H](O)c2cc(F)cc(F)c2)ccc1-c1cnc(N)c(C(=O)NC(C)C)c1 | – | – | female nude mouse, plasma | oral, 100 mg/kg, single dose | – | Tmax | 1 h |

Excerpt of the above:
| SMILES | tested on | test | system | conditions | scale | quantity | value |
| --- | --- | --- | --- | --- | --- | --- | --- |
| CNC(=O)C1CCCN(C(=O)C2CC3CCC2N3C(=O)[C@@H]2C[C@@H](O)CN2C(=O)NCc2cccc(Cl)c2F)C1 (mixture of isomers) | CYP3A4 (human) | inhibitor, time-dependent inhibition | – | 50 µM, preincubated without NADPH, together with: testosterone substrate | – | 6β-hydroxytestosterone formation | 171 ng/mL |
